Published values collected from several papers.
Every numbered part comes from another study and shows a few of its results, in no order. Several values in a cell are separate wells, animals, samples, runs or records.

Study 1 — organism: Sarcocystis neurona; read-out: parasite growth; concentration: 10 µM; time: 96 h; notes: first screen
Compound | inhibition [%]
CCS(=O)(=O)CCn1c([N+](=O)[O-])cnc1C | 4.3
CC(C(=O)O)c1ccc(CC2CCCC2=O)cc1 (stereo not shown) | -8.7
CC1CNc2c(cccc2S(=O)(=O)N[C@@H](CCCNC(=N)N)C(=O)N2CC[C@@H](C)C[C@@H]2C(=O)O)C1 (stereo partly shown) | 14.2
CN(C)c1nc(N(C)C)nc(N(C)C)n1 | -21.9
Cc1nnc(SCC2=C(C(=O)O)N3C(=O)[C@@H](NC(=O)Cn4cnnn4)[C@H]3SC2)s1 | -15.2
CC(C[N+](C)(C)C)OC(N)=O (stereo not shown) | -8.4
COc1ccc(-c2oc3c(CC=C(C)C)c(O[C@@H]4O[C@H](CO)[C@@H](O)[C@H](O)[C@H]4O)cc(O)c3c(=O)c2O[C@@H]2O[C@@H](C)[C@H](O)[C@@H](O)[C@H]2O)cc1 | -0.223
CCn1cc(C(=O)O)c(=O)c2cc(F)c(N3CCNCC3)cc21 | -1.8
CCCC(=O)Nc1ccc(OCC(O)CNC(C)C)c(C(C)=O)c1 (stereo not shown) | 12.3
CN1[C@@H]2CC[C@H]1C[C@@H](OC(=O)C(CO)c1ccccc1)C2 (stereo partly shown) | -2.2
COc1ccccc1OCC(O)COC(N)=O (stereo not shown) | -9.4
CN(C)CCOc1ccc(/C(=C(/CCCl)c2ccccc2)c2ccccc2)cc1 | 1.1
O=C1CCC(N2C(=O)c3ccccc3C2=O)C(=O)N1 (stereo not shown) | -16.4
CC(=O)OCC[N+](C)(C)C | -14.4
Cn1nnc2c(C(N)=O)ncn2c1=O | -3.4
Cc1cnc(C(=O)NCCc2ccc(S(=O)(=O)NC(=O)NC3CCCCC3)cc2)cn1 | -24.3
C#C[C@]1(OC(C)=O)CC[C@H]2[C@@H]3CCC4=CC(=O)CC[C@@H]4[C@H]3CC[C@@]21C | -5.8
C[C@H]1c2cccc(O)c2C(=O)C2=C(O)[C@]3(O)C(=O)C(C(N)=O)=C(O)[C@@H](N(C)C)[C@@H]3[C@@H](O)[C@@H]21 | -29.1
CCOC(=O)[C@H](CCc1ccccc1)N[C@@H](C)C(=O)N1CCC[C@H]1C(=O)O | -7.3
c1ccc2c(CC3=NCCN3)cccc2c1 | -9.8

Study 2 — read-out: binding; technique: radioligand binding
Target: Histamine H1 receptor (HRH1, Homo sapiens, UniProt P35367)
Sequence of UniProt P35367 (whole entry, looked up): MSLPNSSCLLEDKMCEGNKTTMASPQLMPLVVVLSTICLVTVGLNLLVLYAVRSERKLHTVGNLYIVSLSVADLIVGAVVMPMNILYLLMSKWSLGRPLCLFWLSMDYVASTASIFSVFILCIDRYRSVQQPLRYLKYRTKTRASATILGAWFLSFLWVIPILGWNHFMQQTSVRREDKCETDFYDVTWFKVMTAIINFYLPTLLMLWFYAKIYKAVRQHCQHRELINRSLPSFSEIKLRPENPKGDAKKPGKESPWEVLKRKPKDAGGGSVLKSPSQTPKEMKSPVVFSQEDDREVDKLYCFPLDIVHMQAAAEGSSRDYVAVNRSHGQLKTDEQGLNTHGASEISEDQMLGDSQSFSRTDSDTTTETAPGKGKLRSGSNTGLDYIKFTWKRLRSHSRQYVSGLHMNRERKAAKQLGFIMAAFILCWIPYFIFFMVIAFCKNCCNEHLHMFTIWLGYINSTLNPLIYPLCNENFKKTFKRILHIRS
Structure (SMILES) | Ki [µM]
Cc1c(NC(=O)c2cc(C(N)=O)nc3cc(F)ccc23)c(C(F)(F)F)nn1Cc1ccc(C#N)cc1 | > 10
CCCCN(CCCC)C(=O)CN1C[C@H](c2cc(OC)c3c(c2)OCO3)[C@@H](C(=O)O)[C@@H]1CC(C)(C)CCC | > 10
COc1cccc(NC(=O)c2nc3scc(CN(C)Cc4ccccc4)c3c(=O)[nH]2)c1 | 0.019

Study 3 — technique: Incucyte 3D growth; concentration: 30 µM; reading: higher = more growth
SMILES: CC(C)(C(=O)O)[C@H](NC(=O)Cc1cccc(I)c1)c1ccc2oc(=O)[nH]c2c1
cell line | time | spheroid area
IPC-298 | 66 h | 3.4e+07 a.u. and 3.15e+07 a.u. and 3.06e+07 a.u. and 2.63e+07 a.u. and 3.58e+07 a.u. and 2.91e+07 a.u.
KP-4 | 102 h | 1.92e+07 a.u. and 1.75e+07 a.u. and 1.9e+07 a.u. and 1.8e+07 a.u. and 1.47e+07 a.u. and 1.6e+07 a.u.
IPC-298 | 30 h | 1.66e+07 a.u. and 2.25e+07 a.u. and 2.6e+07 a.u. and 1.99e+07 a.u. and 2.35e+07 a.u. and 2.43e+07 a.u.
A375 | 114 h | 7.65e+07 a.u. and 6.45e+07 a.u. and 5.96e+07 a.u. and 6.21e+07 a.u. and 7.36e+07 a.u. and 7.59e+07 a.u.
MEL-JUSO | 198.52 h | 1.54e+07 a.u. and 1.87e+07 a.u. and 1.44e+07 a.u. and 1.55e+07 a.u. and 2.31e+07 a.u. and 1.83e+07 a.u.
A375 | 12.52 h | 1.07e+07 a.u. and 1.3e+07 a.u. and 1.08e+07 a.u. and 1.02e+07 a.u. and 1.25e+07 a.u.
KP-4 | 162 h | 2.73e+07 a.u. and 1.77e+07 a.u. and 2.38e+07 a.u. and 2.26e+07 a.u. and 2.78e+07 a.u.

Study 4 — read-out: enzyme activity; mode: inhibitor; concentration: 0.5 µM; relative to: control
Target: Protein kinase C beta type, isoform beta-II (PRKCB, Homo sapiens, UniProt P05771)
Sequence of UniProt P05771 (whole entry, looked up): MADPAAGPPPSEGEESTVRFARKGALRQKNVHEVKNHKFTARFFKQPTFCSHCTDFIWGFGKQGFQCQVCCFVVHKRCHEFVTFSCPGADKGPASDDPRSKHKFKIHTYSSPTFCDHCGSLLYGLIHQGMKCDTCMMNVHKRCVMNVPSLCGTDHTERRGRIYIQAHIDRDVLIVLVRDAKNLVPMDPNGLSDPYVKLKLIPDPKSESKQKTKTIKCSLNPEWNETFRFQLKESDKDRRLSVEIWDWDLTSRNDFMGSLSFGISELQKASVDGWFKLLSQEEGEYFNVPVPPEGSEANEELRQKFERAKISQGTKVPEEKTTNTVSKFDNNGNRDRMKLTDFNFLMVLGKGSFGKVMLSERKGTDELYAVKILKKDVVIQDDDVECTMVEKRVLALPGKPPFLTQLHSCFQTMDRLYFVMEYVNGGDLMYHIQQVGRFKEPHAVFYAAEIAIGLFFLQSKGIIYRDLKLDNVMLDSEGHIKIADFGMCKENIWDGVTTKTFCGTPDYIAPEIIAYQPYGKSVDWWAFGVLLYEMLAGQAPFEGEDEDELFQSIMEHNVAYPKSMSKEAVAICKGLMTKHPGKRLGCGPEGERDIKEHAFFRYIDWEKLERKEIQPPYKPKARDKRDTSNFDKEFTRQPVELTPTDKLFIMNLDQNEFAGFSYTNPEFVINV
Compound | remaining activity
O=S(=O)(NCCNC/C=C/c1ccc(Br)cc1)c1cccc2cnccc12 | 90.2%
Cc1cncc2cccc(S(=O)(=O)N3CCCN(C(=O)CN)C[C@@H]3C)c12 | 91.3%
O=C1Cc2c([nH]c3ccc([N+](=O)[O-])cc23)-c2ccccc2N1 | 105%
CC(=O)c1ccc(N2CCOCC2)cc1O | 97.9%
CC#CC(=O)Nc1cc2c(Nc3ccc(F)c(Cl)c3)ncnc2cn1 | 99.5%
N#CC(=C(N)Sc1ccc(N)cc1)c1ccccc1C(F)(F)F | 103%
Cc1cc(Nc2nc(-c3ccccc3)nc3ccccc23)n[nH]1 | 87.3%
CC[n+]1c(/C=C/N(C)c2ccccc2)n(-c2ccccc2)c2ccc(-c3nc4ccccc4s3)cc21 | 118%
CC(C)(C)n1nc(Cc2cccc3ccccc23)c2c(N)ncnc21 | 101%
CCc1[nH]c(-c2ccc(OC)cc2)nc1-c1ccncc1 | 109%
COc1cc(Nc2c(C#N)cnc3cc(OCCCN4CCN(C)CC4)c(OC)cc23)c(Cl)cc1Cl | 88.4%
Nc1ncnc2c1cnn2-c1ccccc1 | 96.5%
Fc1ccc(-c2nc3n(c2-c2ccncc2)CCS3)cc1 | 87.2%
Cc1ccc(NC2=CC(=O)c3sc(C)nc3C2=O)cc1 | 93.8%
O=C1NC(=O)C(c2c[nH]c3ccccc23)=C1c1c[nH]c2ccccc12 | 42.9%
Nc1nccc(-c2c(-c3ccc(F)cc3)ncn2C2CCNCC2)n1 | 79.4%
Nc1nc(Nc2ccc(S(N)(=O)=O)cc2)nn1C(=O)c1c(F)cccc1F | 90.5%
CCCC(=O)Oc1ccc2[nH]c(C(=O)c3cc4ccccc4[nH]3)cc2c1 | 102%
NC(=O)c1ccc(N(C(N)=O)c2c(F)cccc2F)nc1-c1ccc(F)cc1F | 94.6%
COc1ccc(S(=O)(=O)N(CCO)c2ccccc2CN(C)CC=Cc2ccc(Cl)cc2)cc1 | 102%
CSc1nc(-c2ccnc(N[C@@H](C)c3ccccc3)c2)c(-c2ccc(F)cc2)[nH]1 (racemic) | 101%
Oc1ccc(Nc2nc(-c3ccc(Cl)cc3)cs2)cc1 | 94.7%

Repeated from above (study 4):
Compound | remaining activity
CCCC(=O)Oc1ccc2[nH]c(C(=O)c3cc4ccccc4[nH]3)cc2c1 | 102%
NC(=O)c1ccc(N(C(N)=O)c2c(F)cccc2F)nc1-c1ccc(F)cc1F | 94.6%
COc1ccc(S(=O)(=O)N(CCO)c2ccccc2CN(C)CC=Cc2ccc(Cl)cc2)cc1 | 102%
